Experimental data from different studies.
Each line is one published result; not all experiments were run side by side. Numbers after ± are the reported error.
MDM2: E3 ubiquitin-protein ligase Mdm2 (MDM2, Homo sapiens, UniProt Q00987)
MDM2 residues 25-109: E3 ubiquitin-protein ligase Mdm2, residues 25-109 (MDM2, Homo sapiens, UniProt Q00987)
MDM2 N-terminal domain 17-125: E3 ubiquitin-protein ligase Mdm2, N-terminal domain 17-125 (MDM2, Homo sapiens, UniProt Q00987)
MDM2 L33E L33E; with p53: E3 ubiquitin-protein ligase Mdm2, L33E; with p53 (MDM2, Homo sapiens, UniProt Q00987, L33E)

| Structure (SMILES) | target | assay | system | conditions | quantity | value |
| --- | --- | --- | --- | --- | --- | --- |
| CCOC(=O)Nc1ccc2c(c1)CN1C(=S)N(c3ccc(C#N)c(C(F)(F)F)c3)C(=O)C1C2 (stereo not shown) | MDM2 | binding, SPR |  |  | Kd | 256 nM |
| CC(C)C[C@H](NC(=O)[C@H](CO)NC(=O)[C@H](Cc1c[nH]c2ccccc12)N1CCN[C@@H](Cc2ccccc2)C1=O)C(=O)O | E3 ubiquitin-protein ligase Mdm2, N-terminal domain (MDM2, Homo sapiens, UniProt Q00987) | binding, competitive fluorescence polarization |  | together with: fluorescein-p53 peptide probe | Kd | > 400000 nM |
| CC(C)C[C@H](NC(=O)[C@@H]1CSSC[C@@H]2NC(=O)[C@H](CC(N)=O)NC(=O)[C@@H](N)CSSC[C@H](NC(=O)[C@H](CC(C)C)NC(=O)[C@H](Cc3ccccc3)NC(=O)[C@H]([C@@H](C)O)NC(=O)[C@H](CCC(=O)O)NC(=O)[C@@H]3CCCN3C(=O)[C@H](C)NC(=O)[C@H](CCCCN)NC2=O)C(=O)N[C@@H](Cc2ccc(O)cc2)C(=O)N[C@@H](Cc2c[nH]c3ccccc23)C(=O)N[C@@H](CCCNC(=N)N)C(=O)N1)C(=O)N[C@@H](CCC(N)=O)C(N)=O | MDM2 residues 25-109 | SPR competition |  | together with: immobilised p53 peptide | Kd | 35.2 ± 3.7 nM |
| CC(=O)N(Cc1ccccc1)[C@@H](C)C(=O)N(C)[C@@H](C)C(=O)N(Cc1c[nH]c2cc(Cl)ccc12)[C@@H](C)C(=O)N(C)[C@@H](C)C(=O)N(CCC(C)(C)C)[C@@H](C)C(=O)N1CCNCC1 | MDM2 N-terminal domain 17-125 | binding, SPR steady-state affinity | PBS with Tween | 10 °C, immobilised peptoid | Kd | 9.6 nM |
| CC(=O)N[C@@H](CCCCN)C(=O)N[C@@H](CCCCN)C(=O)NCCCCCC(=O)N[C@H](C(=O)N[C@@H](CO)C(=O)N[C@@H](Cc1ccccc1)C(=O)N[C@]1(C)CCCCCCCCCCC[C@@](C)(C(=O)N[C@@H](CCC(=O)O)C(=O)N[C@@H](CC(N)=O)C(=O)N[C@@H](Cc2ccccc2)C(N)=O)NC(=O)[C@H](CC(C)C)NC(=O)[C@H](CC(C)C)NC(=O)[C@H](C)NC(=O)[C@H](Cc2c[nH]c3ccccc23)NC(=O)[C@H](Cc2ccc(O)cc2)NC(=O)[C@H](CCC(=O)O)NC1=O)[C@@H](C)O | MDM2 | cell-free assay, FP |  | pH 7.4 | Kd | 216 nM |
| CSCC[C@@H]1NC(=O)[C@H](C)NC(=O)[C@H](CC(C)C)NC(=O)[C@@H]2CSSC[C@@H](C(=O)O)NC(=O)[C@H](CCCCN)NC(=O)[C@@H]3CSSC[C@H](NC(=O)[C@H](CC(=O)O)NC(=O)[C@H](Cc4ccccc4)NC(=O)[C@H](CO)NC(=O)[C@H](Cc4ccc(O)cc4)NC(=O)[C@@H](N)CSSC[C@H](NC(=O)[C@H](CCCCN)NC(=O)CNC(=O)[C@H](CCCNC(=N)N)NC(=O)[C@H](CCCNC(=N)N)NC(=O)[C@H](Cc4ccccc4)NC(=O)CNC1=O)C(=O)N[C@@H](CCCNC(=N)N)C(=O)N[C@@H](CCCNC(=N)N)C(=O)N[C@@H](CCCNC(=N)N)C(=O)N[C@@H](CCCCN)C(=O)N3)C(=O)N[C@@H](CC(C)C)C(=O)N[C@@H](Cc1c[nH]c3ccccc13)C(=O)N[C@@H](CCCCN)C(=O)N2 | MDM2 residues 25-109 | binding, surface plasmon resonance |  | pH 7.4, 25 °C | Kd | 493 nM |
| Cc1cccc(-n2c(-c3ccccc3O)nc3ccccc3c2=O)c1 | E3 ubiquitin-protein ligase Mdm2, with p53 (MDM2, Homo sapiens, UniProt Q00987) | inhibitor |  |  | IC50 | 420 ± 36 nM |
| CCOC(=O)[C@@H]1Cc2c(cc([N+](=O)[O-])cc2[N+](=O)[O-])[C@@H](O)[C@@]12C(=O)Nc1ccc(Cl)cc12 (single isomer, unassigned) | MDM2 |  |  |  | IC50 | 1500 ± 200 nM |
| CC(=O)N(Cc1ccccc1)[C@@H](C)C(=O)N(C)CC(=O)N(Cc1c[nH]c2cc(Cl)ccc12)[C@@H](C)C(=O)N(C)CC(=O)N(CCC(C)(C)C)[C@@H](C)C(=O)N1CCNCC1 | MDM2 N-terminal domain 17-125 | binding, SPR steady-state affinity | PBS with Tween | 10 °C, immobilised peptoid | Kd | 1400 nM |
| CC(C)Oc1cc(NC(=O)[C@@H](Cc2c[nH]c3ccccc23)NC(=O)c2ccc(N)c(OCc3ccccc3)c2)ccc1C(=O)NCC(=O)O | MDM2 L33E L33E; with p53 | fluorescence anisotropy competition |  | pH 7.5 | IC50 | 25200 ± 1400 nM |
| CC(C)C[C@H](NC(=O)[C@H](CCC(N)=O)NC(=O)[C@@H]1CSSC[C@@H]2NC(=O)[C@H](CC(N)=O)NC(=O)[C@@H](N)CSSC[C@H](NC(=O)[C@H](Cc3ccccc3)NC(=O)[C@H](C)NC(=O)[C@H]([C@@H](C)O)NC(=O)[C@H](CCC(=O)O)NC(=O)[C@@H]3CCCN3C(=O)[C@H](C)NC(=O)[C@H](CCCCN)NC2=O)C(=O)N[C@@H](C)C(=O)N[C@@H](Cc2ccc(O)cc2)C(=O)N[C@@H](Cc2c[nH]c3ccccc23)C(=O)N1)C(N)=O | MDM2 residues 25-109 | SPR competition |  | together with: immobilised p53 peptide | Kd | 17.7 ± 4 nM |
| CC(C)Oc1cc(NC(=O)[C@H](Cc2ccccc2)NC(=O)c2ccc(N)c(OCc3ccccc3)c2)ccc1C(=O)NCC(=O)O | MDM2 L33E L33E; with p53 | fluorescence anisotropy competition |  | pH 7.5 | IC50 | 11900 ± 600 nM |
| CC(=O)N(CC(=O)N(C)[C@@H](C)C(=O)N(Cc1c[nH]c2cc(Cl)ccc12)[C@@H](C)C(=O)N(C)[C@@H](C)C(=O)N(CCC(C)(C)C)[C@@H](C)C(=O)N1CCNCC1)Cc1ccccc1 | MDM2 N-terminal domain 17-125 | binding, SPR kinetic fit | PBS with Tween | 10 °C, immobilised peptoid | Kd | 418 nM |

Excerpt of the above:
| Structure (SMILES) | target | assay | system | conditions | quantity | value |
| --- | --- | --- | --- | --- | --- | --- |
| CC(C)Oc1cc(NC(=O)[C@@H](Cc2c[nH]c3ccccc23)NC(=O)c2ccc(N)c(OCc3ccccc3)c2)ccc1C(=O)NCC(=O)O | MDM2 L33E L33E; with p53 | fluorescence anisotropy competition |  | pH 7.5 | IC50 | 25200 ± 1400 nM |
